Measured values from different studies.
Protocols differ between the studies behind these lines. Numbers after ± are the reported error.

Cc1cc([C@H]2C[C@H]3[C@@H](CF)SC(N)=N[C@@]3(c3ccc(F)cc3F)CO2)on1  brain concentration (male 129/SVE wild-type mouse, brain; subcutaneous, 30 mg/kg, 5 h): 152 nM
CNc1cc[n+](CCNC(=O)c2ccn3c(-c4c(C)noc4C)cnc3c2)cc1.[Cl-]  total organic impurities (0.1 M HCl; 1 weeks, pH 1, room temperature): 0 % peak area
CCCc1ccc(-c2ccc(-c3cc(F)c(F)c(F)c3)c(F)c2)cc1  placental accumulation (rat, placenta; 1000 ng/mL in perfusate, middle dose, mixture of 21 LCMs): 8.99 ± 10.4 ng/g
C=CCN1CC(=O)N2[C@@H](Cc3ccc(O)cc3F)C(=O)N(Cc3cccc(N4CC(N5CCN(CC)CC5)C4)n3)C[C@@H]2N1C(=O)NCc1ccccc1  treatment-related adverse events (measured: Vomiting; advanced solid tumour patients; oral, 120 mg twice daily, expansion part, any grade): 90%
CCN1/C(=C/C(C)=O)Sc2ccc(F)cc21  QT interval (cynomolgus monkey; oral, 30 mg/kg, 2 h post-dose): 242 ± 27 ms
O=C1CC[C@H](N2Cc3cc(N4CCN(CC5CCN(c6ccc([C@@H]7c8ccc(O)cc8CC[C@@H]7c7ccccc7)cc6)CC5)CC4)ccc3C2=O)C(=O)N1  participants with adverse event (measured: Diarrhea; human; oral, 200 mg, added: dabigatran etexilate 75 mg): 0%
CCOC(=O)N1C[C@@H](C2CCCCC2)N[C@@H](c2cccnc2)C1  solubility (shake-flask, LC-HRMS; aqueous buffer; 16 h, pH 6.8): > 750 µM
O=C(N[C@H](Cc1c[nH]c2ccccc12)C(=O)Nc1ccncc1)c1ccc(-c2cc(C(F)(F)F)ccc2F)cc1F  concentration (Swiss Webster mouse, female, intestine; oral, 50 mg/kg, 2 h, 20% Kolliphor vehicle): 152000 nM
C[C@]12CC[C@@H]3c4ccc(O)cc4CC[C@H]3[C@@H]1CC[C@@H]2O  uterine weight (immature female Sprague-Dawley rat; oral, dose not given, 4 days once daily, uterotrophic; baseline: vehicle): increased
O=C(c1cccnc1-c1ccncc1)N1CCC(O)(Cc2ccccc2)CC1  Cmax at steady state (human, plasma; oral, 300 mg, added: mefenamic acid): 2140 ng/mL
CCC[C@H]1CC[C@H](c2ccc(C#N)cc2)CC1  placental accumulation (Sprague-Dawley rat, female, placenta; 5000 ng/mL in perfusate, 50 (unit not given), high dose, mixture of 21 LCMs): 816 ± 943 ng/g
N#Cc1ccc2c(c1)[C@H]1CCCN(C(=O)c3ccc4[nH]cnc4c3)[C@H]1C2  total testosterone level (human females; 10 mg, end of trial): 0.4 nmol/L
CCOc1c([C@H](C)n2nc(C)c3c(N)ncnc32)cc(Cl)c(F)c1[C@@H]1CNC(=O)C1  Cmin (human patients, all cohorts, plasma; oral, 20 mg, day 15, monotherapy, geometric mean): 214 nM
FC(F)(F)c1ccc(CNc2ccc(Cc3c[nH]c4ncc(Cl)cc34)cn2)cn1  treatment-related adverse events (measured: memory impairment; human, advanced solid tumours, all patients; oral, 1000 mg/day, any grade): 4%
C=CC(=O)Nc1cc(Nc2nccc(-c3cn(C)c4ccccc34)n2)c(OC)cc1N(C)CCN(C)C  recovery (human plasma; 72 h, storage stability, LLOQ sample): 50.1%
C[C@H](CCC(=O)NCC(=O)O)[C@H]1CC[C@H]2[C@@H]3CC[C@@H]4C[C@H](O)CC[C@]4(C)[C@H]3CC[C@]12C  Cmin (human, plasma; endogenous baseline diurnal): 9.27 ± 2.59 nM
NC[C@@]1(CC(=O)O)[C@@H]2CC[C@H]3C[C@@H]2[C@@H]1C3  Cmax increase (human, mild renal impairment, plasma; dose not given; baseline: normal renal function): 6%
CSc1ccccc1C(=O)NCCn1cc(C(=O)NCc2cccc(C)n2)c(=O)c2cc3c(cc21)OC(F)(F)O3  MRT(0-inf) (Sprague-Dawley rat, male, plasma; intravenous, 20 mg/kg of parent drug): 1.58 h
COC(=O)c1ccc([C@H]2COC[C@@H](C3CC3)N2)cc1  solubility (shake-flask, LC-HRMS; aqueous buffer; 16 h, pH 6.8): > 750 µM
CCc1cc(C(=O)NC)c2nccc(N3CCc4c(cc(Cn5ccnc5)cc4-c4cn(C)nc4C(F)(F)F)C3=O)c2c1  serum HDL level (Sprague Dawley rats; oral, 100 mg/kg twice daily, 7 days): 1.1 ± 0.24 mmol/L
CC(=O)N(C)[C@H]1CCN(C(=O)c2cnc3c(c2)C[C@](C)(c2ccc(F)cc2)N3)C1  linearity index (AUCt,ss/AUC0-inf) (male humans, plasma; oral, 60 mg once daily, geometric mean): 1.01
CNC(=O)c1ccc(-c2cnc3ncc(Cc4ccc5ncccc5c4)n3n2)cc1F  Dyspnea dose reduction/interruption (Japanese patients; oral, 400 mg, grade 3/4): 0%
COc1ccc(NC(=O)CN2CCOCC2)c([N+](=O)[O-])c1  solubility (aqueous buffer; pH 7.4): 46.5 µg/mL
NC1(C(=O)N[C@@H](CCO)c2ccc(Cl)cc2)CCN(c2nc[nH]c3nccc2-3)CC1  incidence of lower abdominal pain (metastatic CRPC patients; 480 mg b.i.d., any grade, treatment-related, added: enzalutamide 160 mg daily): 20%
COc1cc2nccc(Oc3ccc(NC(=O)c4cc5c(n(-c6ccccc6)c4=O)CCCC5=O)nc3)c2cc1OC  grade ≥3 Hyperglycaemia patients (relapsed or refractory AML; oral, 10 mg once daily): 14.3%
Cc1c(-c2ccc(N3CCc4cccc(C(=O)Nc5nc6ccccc6s5)c4C3)nc2C(=O)O)cnn1CC12CC3(C)CC(C)(C1)CC(OCCNCC[C@H](O)CO)(C3)C2  mean arterial pressure change (beagle dog, anaesthetised; intravenous infusion, 0.1 mg/kg/min, 120 min; baseline: baseline): -8 mmHg
Nc1ncn([C@H]2C[C@H](O)[C@@H](CO)O2)c(=O)n1  mean deviation from nominal (processed mouse plasma; 40 ng/mL, 12 h, 4 °C, autosampler stability): -0.45%
CCOC(=O)N1C[C@@H](C(CC)CC)N[C@@H](C2CC2)C1  solubility (shake-flask, LC-HRMS; aqueous buffer; 16 h, pH 6.8): > 750 µM
Cc1ccc(Sc2ccccc2N2CCNCC2)c(C)c1  increased blood creatine phosphokinase (healthy female adults; oral, 5 mg daily, 12 days): 0%
Cn1nc([N+](=O)[O-])nc1Oc1ccccc1C(=O)N1CCOCC1  solubility (aqueous buffer; pH 7.4): 1640 µg/mL
O=C(O)c1cccc(C(=O)O)c1  apparent dissolution enthalpy (betaine/glycerol DES-water; DES mass fraction 0.90): 3.87 kcal/mol
Cn1cnc2ccc(Nc3c(F)ccc(NS(=O)(=O)N4CC(F)C4)c3Cl)c(Cl)c2c1=O  patients with lipase increased (measured: lipase increased grade ≥3; human patients; dose not given, monotherapy trial; baseline: patients): 0%
CC/C=C\C/C=C\C/C=C\C/C=C\C/C=C\C/C=C\CCC(=O)O.Cc1cc(/C=C/C#N)cc(C)c1Nc1ccnc(Nc2ccc(C#N)cc2)n1  equilibrium solubility (water): 0.54 ± 0.08 µg/mL
Cc1cc(-c2nnc(N)nc2-c2ccc(F)cc2)cc(Cl)n1  incidence of AE, immune-mediated, treatment-related (measured: rash, all grades; post-IO NSCLC patients; oral, 100 mg once daily): 5.9%
C[C@H]1CN(C(=O)CC#N)[C@]12CCN(c1ncnc3[nH]ccc13)C2  Tmax, median or range (healthy adults, plasma; oral, 3 mg single dose): 0.8 h
C[C@H](CCC(=O)NCC(=O)O)[C@H]1CC[C@H]2[C@@H]3CC[C@@H]4C[C@H](OS(=O)(=O)O)CC[C@]4(C)[C@H]3C[C@H](O)[C@]12C  Cmin (human, plasma; control): 127 ± 54 nM
c1ccc(-c2ncc([C@H]3COC[C@@H](c4ccc(-c5ccccn5)cc4)N3)cn2)cc1  solubility (shake-flask, LC-HRMS; aqueous buffer; 16 h, pH 6.8): < 4 µM
CCN1CCN(Cc2ccc(NC(=O)c3ccc(C)c(NC(=O)c4cncc(-c5cccs5)c4)c3)cc2C(F)(F)F)CC1  plasma concentration (LC-MS/MS; C57BL/6 mouse, plasma; intraperitoneal, 10 mg/kg single dose, 24 h): 8 ng/mL
CCO[C@H]1CCN(Cc2c(OC)cc(C)c3[nH]ccc23)[C@H](c2ccc(C(=O)O)cc2)C1  total Cmax (healthy volunteers, plasma; oral, 200 mg single dose, mean): 3580 ng/mL
CNCCOC12CC3(C)CC(C)(CC(Cn4ncc(-c5ccc(N6CCc7cccc(C(=O)Nc8nc9ccccc9s8)c7C6)nc5C(=O)O)c4C)(C3)C1)C2  dP/dt at 50 change (beagle dog, male, anaesthetised; intravenous bolus, 0.03 mg/kg, 90 min; baseline: baseline): -5%
O=c1[nH]c(=O)n([C@H]2C[C@H](O)[C@@H](CO)O2)cc1CCCC[18F]  biodistribution (male CD-1 nu/nu mice, RG2 tumour, lung; intravenous, dose not given, 2 h): 0.27 ± 0.07 %ID/g
COc1cccc(OC)c1-c1cc(C(=O)NC2(C(=O)O)C3CC4CC(C3)CC2C4)nn1-c1ccc(C(=O)N(C)CCCN(C)CCCN(C)C(=O)CN2CCN(CC(=O)[O-])CCN(CC(=O)[O-])CCN(CC(=O)[O-])CC2)cc1C(C)C.[177Lu+3] (centres unmarked)  tumour-to-bone ratio (mouse, HT-29 xenograft; 4 h post injection, biodistribution; baseline: tumour over bone uptake): 11.5
O=c1[nH]c(=O)n([C@@H]2O[C@H](CO)[C@@H](O)[C@@H]2F)cc1CCCCC[18F]  biodistribution (nude mice, RG2 tumour, muscle; intravenous, dose not given, 2 h): 0.1 ± 0.03 %ID/g
Cn1cc([C@H]2COC[C@@H](c3ccc(C(C)(C)C)cc3)N2)cn1  solubility (shake-flask, LC-HRMS; aqueous buffer; 16 h, pH 6.8): > 750 µM
[18F]c1ccc(-c2ccc3c(c2)[nH]c2ccncc23)cn1  SUV (ex vivo biodistribution; APP/PS1 mouse, AD model, cerebellum; intravenous, 30 min): 0.471 ± 0.365
Clc1ccc([C@H]2COC[C@H](c3cccc(Br)c3)N2)cc1  solubility (shake-flask, LC-HRMS; aqueous buffer; 16 h, pH 6.8): < 4 µM
COC(=O)c1ccccc1NC(=O)CSc1nnc(-c2ccc(OC)cc2)n1C  solubility (aqueous buffer; pH 7.4): < 2.95 µg/mL
CCn1c(=O)c(-c2cc(NC(=O)Nc3ccccc3)c(F)cc2Br)cc2cnc(NC)cc21  participants with drug-related TEAE (measured: lipase increased; human, moderate hepatic impairment; oral, 50 mg single dose): 50%
CCC(CC)[C@@H]1COC[C@@H](c2ccc(C#N)cc2)N1  solubility (shake-flask, LC-HRMS; aqueous buffer; 16 h, pH 6.8): > 750 µM
CNC(=O)c1ccc(-c2cnc3ncc(Cc4ccc5ncccc5c4)n3n2)cc1F  patients with adverse event (measured: Insomnia, all grades; hepatocellular carcinoma patients; oral, 600 mg twice daily, expansion cohort, any causality): 0%
COc1cc(Nc2ncc3c(n2)-c2ccc(Cl)cc2C(c2c(F)cccc2OC)=NC3)ccc1C(=O)O  patients with adverse event (measured: Nausea, grade 2; cancer patients, phase 1/2; oral, dose not given, added: pembrolizumab): 4%
C=CC(=O)Nc1cc(Nc2nccc(-c3cn(C4CC4)c4ccccc34)n2)c(OC)cc1N(C)CCN(C)C  MONO percentage (BALB/c nude mouse, LU0387 xenograft, blood; oral, 40 mg/kg): 6.28 ± 0.296%
CCCCC1=NC2(CCCC2)C(=O)N1Cc1ccc(-c2ccccc2S(=O)(=O)Nc2noc(C)c2C)c(COCC)c1  Tmax (healthy adult volunteers, plasma; oral, 200 mg, single dose, fasted, crushed tablet): 2.51 h
Cc1cc(NC2CCN(C(=O)OC3CCN(C(=O)/C=C/CN(C)C)C3)CC2)n2ncc(C(C)C)c2n1 (centres unmarked)  patients with TEAE (CTCAE v4.0, measured: Vomiting; patients with advanced solid tumours; oral, dose not given, TIW, grade 3 or higher): 0%
Cc1ccc([C@@H]2O[C@H](CO)[C@@H](O)[C@H](O)[C@H]2O)cc1Cc1ccc(-c2ccc(F)cc2)s1  urinary sodium excretion change (Japanese type 2 diabetes patients; 200 mg, day 1, 24 h urine collection; baseline: baseline): 44.3 mEq
O=c1[nH]c(=O)n([C@H]2C[C@H](O)[C@@H](CO)O2)cc1CCC[18F]  biodistribution (male CD-1 nu/nu mice, RG2 tumour, liver; intravenous, dose not given, 2 h): 0.39 ± 0.12 %ID/g
O=C(Nc1nc2cccc(-c3ccc(CN4CCS(=O)(=O)CC4)cc3)n2n1)C1CC1  treatment-emergent adverse events (measured: food allergy; human rheumatoid arthritis patients; oral, 75 mg once daily, 4 weeks, regardless of relatedness): 0%
CC(C)c1nc(CN(C)C(=O)N[C@@H](CCN2CCOCC2)C(=O)N[C@H](CC[C@H](Cc2ccccc2)NC(=O)OCc2cncs2)Cc2ccccc2)cs1  any TEAE (human; oral, 150 mg, drug interaction trial): 38.5%
Cc1ncnc2c1ccn2[C@@H]1C[C@H](Oc2cc(C(F)F)c(F)c3c2CNCC3)[C@@H](O)[C@H]1O  Cmin (human; oral, 0.5 mg twice daily): 2.54 ng/mL

Some of these lines once more:
Cc1ncnc2c1ccn2[C@@H]1C[C@H](Oc2cc(C(F)F)c(F)c3c2CNCC3)[C@@H](O)[C@H]1O  Cmin (human; oral, 0.5 mg twice daily): 2.54 ng/mL
CC(=O)N(C)[C@H]1CCN(C(=O)c2cnc3c(c2)C[C@](C)(c2ccc(F)cc2)N3)C1  linearity index (AUCt,ss/AUC0-inf) (male humans, plasma; oral, 60 mg once daily, geometric mean): 1.01
O=C(N[C@H](Cc1c[nH]c2ccccc12)C(=O)Nc1ccncc1)c1ccc(-c2cc(C(F)(F)F)ccc2F)cc1F  concentration (Swiss Webster mouse, female, intestine; oral, 50 mg/kg, 2 h, 20% Kolliphor vehicle): 152000 nM
FC(F)(F)c1ccc(CNc2ccc(Cc3c[nH]c4ncc(Cl)cc34)cn2)cn1  treatment-related adverse events (measured: memory impairment; human, advanced solid tumours, all patients; oral, 1000 mg/day, any grade): 4%
Cn1cc([C@H]2COC[C@@H](c3ccc(C(C)(C)C)cc3)N2)cn1  solubility (shake-flask, LC-HRMS; aqueous buffer; 16 h, pH 6.8): > 750 µM
CCOc1c([C@H](C)n2nc(C)c3c(N)ncnc32)cc(Cl)c(F)c1[C@@H]1CNC(=O)C1  Cmin (human patients, all cohorts, plasma; oral, 20 mg, day 15, monotherapy, geometric mean): 214 nM
Cn1cnc2ccc(Nc3c(F)ccc(NS(=O)(=O)N4CC(F)C4)c3Cl)c(Cl)c2c1=O  patients with lipase increased (measured: lipase increased grade ≥3; human patients; dose not given, monotherapy trial; baseline: patients): 0%
COC(=O)c1ccc([C@H]2COC[C@@H](C3CC3)N2)cc1  solubility (shake-flask, LC-HRMS; aqueous buffer; 16 h, pH 6.8): > 750 µM
